Measured values from different studies.
± gives the spread as reported.
Organism: Plasmodium falciparum

Compound | assay | system | setting | IC50
COC1(C)CC2C=CC3C(C)C=CC=CC(C)OC(=O)C(C)C(=O)C(Cl)(Cl)C(=O)C3C2C(C)C1O (stereo not shown) | parasite growth, ELISA | DD2 | drug-resistant strain, blood stage | > 7810 nM
C[OH+][Cu-2]12[O]C(c3cn(-c4ccccc4)nc3-c3ccc(Cl)cc3)=N[N+]1=C(C)c1c(cc(C)oc1=O)[O]2 (stereo not shown) | parasite growth, SYBR Green I fluorescence | 3D7 | 72 h | 28200 nM
C[C@H]1[C@@H](OCc2nnn(-c3cc4ccc(O)cc4oc3=O)c2CO[C@H]2O[C@@H]3O[C@@]4(C)CC[C@H]5[C@H](C)CC[C@@H]([C@H]2C)[C@@]35OO4)O[C@@H]2O[C@@]3(C)CC[C@H]4[C@H](C)CC[C@@H]1[C@@]24OO3 | parasite growth | 3D7 | 24 h, blood stage | 0.58 nM
Cc1nc2ccc(F)cc2c2c1C1(C)CC2c2cc(F)ccc2N1 (stereo not shown) | parasite growth, inhibitor, SYBR Green I | Cam3.1 R539T (MRA-1240) | – | 181 nM
O=C1C(NCCc2ccc(O)cc2)=CC2=NCCc3c(Br)[nH]c1c32 | parasite growth, SYBR Green | 3D7 | blood stage | 4060 nM
COc1cc(C)c(-c2ccc(O)c3c2C[C@@H](C)N[C@@H]3C)c2cccc(O)c12 (single isomer, unassigned) | parasite growth, SYBR Green | W2 | drug-resistant strain, blood stage | 560 nM
COc1c(Br)cc(CCNC2=CC3=NCCc4c[nH]c(c43)C2=O)cc1Br | parasite growth, SYBR Green | 3D7 | blood stage | 110 nM
COc1ccc2cc1Oc1cc3c(cc1OC)CCN(C)C3Cc1ccc(cc1)Oc1c(O)c(OC)cc3c1C(C2)N(C)CC3 (stereo not shown) | parasite growth, stage-specific treatment | – | 12 h, early to late ring stage | 2910 ± 230 nM
C[OH+][Cu-2]12[O]C(c3cn(-c4ccccc4)nc3-c3ccc(C)cc3)=N[N+]1=C(C)c1c(cc(C)oc1=O)[O]2 (stereo not shown) | parasite growth, SYBR Green I fluorescence | 3D7 | 72 h | 8950 nM
CC1=C[C@@H](C)[C@H]2[C@@H]3C(=O)C(Cl)(Cl)C(=O)[C@H](C)C(=O)O[C@@H](C)/C=C/C=C\[C@@H](C)[C@@H]3C=C[C@@H]2C1 | parasite growth, ELISA | DD2 | drug-resistant strain, blood stage | 16 nM
CC(=O)c1c(O)c(C)c(O)c2c1OC1=CC(=O)C(=C(C)NCCCCOC3OC4OC5(C)CCC6C(C)CCC(C3C)C46OO5)C(=O)C12C (mixture of isomers) | parasite growth, [3H]hypoxanthine incorporation | K1 | erythrocytic stages | 11.7 nM
O=C1C(=O)c2[nH]cc3c2C(=C1Cl)NCC3 | parasite growth, SYBR Green | 3D7 | blood stage | 14900 nM
CC(C)N1CCCCC1C(=O)NC(Cc1ccc(-c2ccccc2)cc1)B(O)O (stereo not shown) | male gamete exflagellation | stage V gametocytes | 48 h | 1000 nM
C[C@@H]1CC[C@H]2[C@@H](C)C(=O)O[C@@H]3O[C@@]4(C)CC[C@@H]1[C@]32OO4 | parasite growth | K1 | 72 h, drug-resistant strain, blood stage | 0.69 nM
CC(=O)c1c(O)c(C)c(O)c2c1OC1=CC(=O)C(=C(C)NNc3ccnc4cc(Cl)ccc34)C(=O)C12C (stereo not shown) | parasite growth, 3H-hypoxanthine incorporation | K1 | asexual erythrocytic stages | 1.1 µg/mL
O[C@]12C=C(c3nccc4c3[nH]c3ccccc34)[C@@H]3CCN(CCCC/C=C\CC1)C[C@@]31C[C@@H]3/C=C\CCCCN3[C@H]12 | – | W2, chloroquine-resistant | 72 h | 0.0258 ± 0.0075 µg/mL
CCOC(=O)CCCc1cccc2c(-c3ccc(Oc4ccccc4)cc3)ccnc12 | parasite growth, inhibitor, SYBR Green I | Cam3.1 R539T (MRA-1240) | – | 9260 nM
CC1CCC(C(C)(C)C(=O)Nc2ccc(Oc3ccccc3)cc2)CC1 (stereo not shown) | parasite growth, SYBR Green | FCB | – | 202 nM
C[C@H]1[C@H](OC(=O)CCC(=O)OCc2cn(-c3cc4ccc(O)cc4oc3=O)nn2)O[C@@H]2O[C@@]3(C)CC[C@H]4[C@H](C)CC[C@@H]1[C@@]24OO3 | parasite growth | 3D7 | 72 h, blood stage | 62.7 nM

Compound | assay | system | setting | IC50
Nc1ncnc2c1c(-c1ccc(Oc3ccccc3)cc1)cn2C1CCCC1 | growth, SYBR Green | FVO | 36 h | 28000 nM
CC(=O)c1c(O)c(C)c(O)c2c1OC1=CC(=O)C(=C(C)NCCCCO)C(=O)C12C (stereo not shown) | parasite growth, [3H]hypoxanthine incorporation | K1 | erythrocytic stages | 5610 nM
C[C@H]1[C@@H](OCc2cn(-c3cc4ccc(O)cc4oc3=O)nn2)O[C@@H]2O[C@@]3(C)CC[C@H]4[C@H](C)CC[C@@H]1[C@@]24OO3 | parasite growth | 3D7 | 24 h, blood stage | 1 nM
O[Si](CCCN1CCCCC1)(c1ccc(F)cc1)C1CCCCC1 (stereo not shown) | parasite growth, SYBR Green | DD2 | blood stage | 22 nM
CC1C=CC=CC(C)C2C=CC3CC(C)(O)C(O[N+](=O)[O-])C(C)C3C2C(=O)C(Cl)(Cl)C(=O)C(C)C(=O)O1 (stereo not shown) | parasite growth, ELISA | DD2 | drug-resistant strain, blood stage | 2.25 nM
COc1cc2c3cc1Oc1cc(ccc1O)CC1c4c(cc(OC)c(O)c4Oc4ccc(cc4)CC3N(C)CC2)CCN1C (stereo not shown) | parasite growth, stage-specific treatment | – | 12 h, early to late ring stage | 7340 nM
C[C@H]1[C@H](OC(=O)CCC(=O)OCc2nnn(-c3cc4ccc(O)cc4oc3=O)c2COC(=O)CCC(=O)O[C@@H]2O[C@@H]3O[C@@]4(C)CC[C@H]5[C@H](C)CC[C@@H]([C@H]2C)[C@@]35OO4)O[C@@H]2O[C@@]3(C)CC[C@H]4[C@H](C)CC[C@@H]1[C@@]24OO3 | – | 3D7, supernatant of treated uninfected erythrocytes | 72 h, 500 nM preincubated 0.16 h | 3.8 ± 0.7 nM
COc1ccc2nc3cc(Cl)ccc3c(NCCNC(C)=C3C(=O)C=C4Oc5c(C(C)=O)c(O)c(C)c(O)c5C4(C)C3=O)c2c1 (stereo not shown) | parasite growth, 3H-hypoxanthine incorporation | K1 | asexual erythrocytic stages | 0.03 µg/mL
C[OH+][Cu-2]12[O]C(c3cn(-c4ccccc4)nc3-c3ccc(F)cc3)=N[N+]1=C(C)c1c(cc(C)oc1=O)[O]2 (stereo not shown) | SYBR Green I fluorescence | 3D7 | 72 h | 19600 nM
CCOC1C(C)C2C(C=CC3C(C)C=CC=CC(C)OC(=O)C(C)C(=O)C(Cl)(Cl)C(=O)C32)CC1(C)O (stereo not shown) | parasite growth, ELISA | DD2 | drug-resistant strain, blood stage | > 11000 nM
CC1=N[C@H](C)Cc2c(-c3ccc4ccccc4c3)ccc(O)c21 | parasite growth, SYBR Green | W2 | drug-resistant strain, blood stage | 870 nM
COCCN(C)C(C)C(=O)NC(Cc1ccc(-c2ccccc2)cc1)B(O)O (stereo not shown) | – | compound-selected recrudescent clone 1E9_D11 | 72 h | 8050 ± 960 nM
CCOC(=O)c1ccc2c(c1)C1CC(C)(N2)c2c(C)nc3ccc(C(=O)OCC)cc3c21 (stereo not shown) | parasite growth, inhibitor, SYBR Green I | Cam3.1 R539T (MRA-1240) | – | 2700 nM
COc1ccc(CCNC2=CC3=[N+](C)CCc4c[nH]c(c43)C2=O)cc1 | parasite growth, SYBR Green | 3D7 | blood stage | 22.6 nM
COC1C(C)C2C(C=CC3C(C)C=CC=CC(C)OC(=O)C(C)C(=O)C(Cl)(Cl)C(=O)C32)CC1(C)O (stereo not shown) | parasite growth, ELISA | DD2 | drug-resistant strain, blood stage | > 11000 nM
CN1CCCCC1C(=O)NC(Cc1ccc(-c2ccccc2)cc1)B(O)O (stereo not shown) | ex vivo | Brazilian field isolates | range limit | 7 to 134 nM
CCN(CC)CCCC(C)Nc1ccnc2cc(Cl)ccc12 (stereo not shown) | parasite growth | Dd2 kelch13 R539T, artemisinin resistant | 72 h, ring stage | 68.52 ± 0.09 nM
O[C@H](CNCCNC(c1ccccc1)c1ccccc1)c1cc(Cl)cc2c1-c1ccc(Cl)cc1C2 | parasite growth, SYBR Green | W2 | 48 h, drug-resistant strain, blood stage | 1.8 nM

Repeated from above:
Compound | assay | system | setting | IC50
CCOC1C(C)C2C(C=CC3C(C)C=CC=CC(C)OC(=O)C(C)C(=O)C(Cl)(Cl)C(=O)C32)CC1(C)O (stereo not shown) | parasite growth, ELISA | DD2 | drug-resistant strain, blood stage | > 11000 nM
CC1=N[C@H](C)Cc2c(-c3ccc4ccccc4c3)ccc(O)c21 | parasite growth, SYBR Green | W2 | drug-resistant strain, blood stage | 870 nM
COCCN(C)C(C)C(=O)NC(Cc1ccc(-c2ccccc2)cc1)B(O)O (stereo not shown) | – | compound-selected recrudescent clone 1E9_D11 | 72 h | 8050 ± 960 nM
CCOC(=O)c1ccc2c(c1)C1CC(C)(N2)c2c(C)nc3ccc(C(=O)OCC)cc3c21 (stereo not shown) | parasite growth, inhibitor, SYBR Green I | Cam3.1 R539T (MRA-1240) | – | 2700 nM
